Measured values from different studies.
Protocols differ between the studies behind these lines. Several values in a cell are separate wells, animals, samples, runs or records. ± gives the spread as reported.
Coatomer subunit beta' WD repeat domain: Coatomer subunit beta', WD repeat domain (Homo sapiens, UniProt P35606)
UniProt P35606, sequence (whole entry, looked up): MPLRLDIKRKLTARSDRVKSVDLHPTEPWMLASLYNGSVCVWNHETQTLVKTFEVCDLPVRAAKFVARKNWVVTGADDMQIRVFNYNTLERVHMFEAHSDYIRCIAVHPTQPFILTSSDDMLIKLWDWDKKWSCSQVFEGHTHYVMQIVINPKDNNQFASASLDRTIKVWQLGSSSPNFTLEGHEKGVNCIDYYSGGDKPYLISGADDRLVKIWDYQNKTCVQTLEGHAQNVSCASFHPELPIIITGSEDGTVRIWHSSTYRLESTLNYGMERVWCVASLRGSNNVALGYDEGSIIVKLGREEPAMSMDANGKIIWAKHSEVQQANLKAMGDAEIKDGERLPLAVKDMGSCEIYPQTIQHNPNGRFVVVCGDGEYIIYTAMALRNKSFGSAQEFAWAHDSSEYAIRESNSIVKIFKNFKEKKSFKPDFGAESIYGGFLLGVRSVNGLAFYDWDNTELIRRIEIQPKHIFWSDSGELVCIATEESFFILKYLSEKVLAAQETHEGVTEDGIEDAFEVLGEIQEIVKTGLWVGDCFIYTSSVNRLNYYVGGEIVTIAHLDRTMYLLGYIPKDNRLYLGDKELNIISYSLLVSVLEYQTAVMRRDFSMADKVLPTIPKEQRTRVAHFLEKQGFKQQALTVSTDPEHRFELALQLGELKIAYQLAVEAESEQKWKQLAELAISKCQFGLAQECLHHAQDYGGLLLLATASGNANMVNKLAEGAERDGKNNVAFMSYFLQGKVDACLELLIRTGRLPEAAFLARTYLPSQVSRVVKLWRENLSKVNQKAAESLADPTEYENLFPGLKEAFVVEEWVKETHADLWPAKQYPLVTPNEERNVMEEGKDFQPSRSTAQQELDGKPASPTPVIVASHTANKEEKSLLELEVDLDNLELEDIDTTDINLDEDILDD
GUK1: GUK1 (Homo sapiens, UniProt Q16774)
UniProt Q16774, sequence (whole entry, looked up): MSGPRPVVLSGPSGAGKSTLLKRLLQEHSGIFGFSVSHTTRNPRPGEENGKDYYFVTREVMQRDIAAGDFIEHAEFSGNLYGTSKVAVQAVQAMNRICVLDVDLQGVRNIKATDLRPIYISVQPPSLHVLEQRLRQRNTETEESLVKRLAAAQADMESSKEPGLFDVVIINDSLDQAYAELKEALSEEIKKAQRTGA
Nuclear receptor subfamily 2 group C member 2 ligand-binding domain: Nuclear receptor subfamily 2 group C member 2, ligand-binding domain (Homo sapiens, UniProt P49116)
UniProt P49116, sequence (whole entry, looked up): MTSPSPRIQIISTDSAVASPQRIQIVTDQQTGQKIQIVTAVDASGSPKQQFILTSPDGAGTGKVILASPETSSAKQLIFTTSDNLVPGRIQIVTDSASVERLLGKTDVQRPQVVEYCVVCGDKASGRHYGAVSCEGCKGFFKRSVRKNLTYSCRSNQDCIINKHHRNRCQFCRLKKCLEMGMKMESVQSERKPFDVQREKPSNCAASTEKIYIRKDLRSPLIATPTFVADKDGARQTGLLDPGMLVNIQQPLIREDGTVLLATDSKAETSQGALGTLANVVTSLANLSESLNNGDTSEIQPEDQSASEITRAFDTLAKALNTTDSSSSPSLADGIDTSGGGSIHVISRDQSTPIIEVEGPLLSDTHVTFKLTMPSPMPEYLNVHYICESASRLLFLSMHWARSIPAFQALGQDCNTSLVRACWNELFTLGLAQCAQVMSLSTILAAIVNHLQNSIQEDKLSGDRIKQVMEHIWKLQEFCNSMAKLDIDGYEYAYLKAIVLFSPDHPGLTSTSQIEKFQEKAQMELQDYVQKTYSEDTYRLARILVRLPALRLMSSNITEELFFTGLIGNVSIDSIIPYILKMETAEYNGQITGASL
MAPK3: Mitogen-activated protein kinase 3 (MAPK3, Homo sapiens, UniProt P27361)
UniProt P27361, sequence (whole entry, looked up): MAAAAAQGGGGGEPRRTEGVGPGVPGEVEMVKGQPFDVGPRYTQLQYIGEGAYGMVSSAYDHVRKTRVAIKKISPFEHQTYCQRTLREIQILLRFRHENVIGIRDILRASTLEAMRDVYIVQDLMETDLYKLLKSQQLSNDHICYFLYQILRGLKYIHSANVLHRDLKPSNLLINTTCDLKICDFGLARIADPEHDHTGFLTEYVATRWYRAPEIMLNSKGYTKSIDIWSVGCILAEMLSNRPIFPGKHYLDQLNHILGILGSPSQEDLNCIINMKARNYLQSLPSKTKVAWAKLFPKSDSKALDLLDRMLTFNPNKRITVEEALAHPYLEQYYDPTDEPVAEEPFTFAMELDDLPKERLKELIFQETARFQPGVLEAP
Pancreatic alpha-amylase: Pancreatic alpha-amylase (Homo sapiens, UniProt P04746)
UniProt P04746, sequence (whole entry, looked up): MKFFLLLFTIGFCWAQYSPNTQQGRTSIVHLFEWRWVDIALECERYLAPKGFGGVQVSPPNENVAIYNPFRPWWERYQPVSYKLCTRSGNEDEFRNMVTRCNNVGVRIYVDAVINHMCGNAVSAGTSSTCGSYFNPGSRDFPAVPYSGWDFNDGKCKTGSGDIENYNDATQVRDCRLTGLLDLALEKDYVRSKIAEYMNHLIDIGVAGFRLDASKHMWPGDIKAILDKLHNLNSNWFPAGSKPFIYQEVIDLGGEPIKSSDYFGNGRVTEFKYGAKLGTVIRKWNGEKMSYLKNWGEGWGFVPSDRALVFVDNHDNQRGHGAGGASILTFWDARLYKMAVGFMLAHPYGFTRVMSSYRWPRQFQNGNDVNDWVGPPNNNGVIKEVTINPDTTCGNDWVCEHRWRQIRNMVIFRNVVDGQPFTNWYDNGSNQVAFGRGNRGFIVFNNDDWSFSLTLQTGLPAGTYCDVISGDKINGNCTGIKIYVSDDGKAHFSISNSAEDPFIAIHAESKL
XPO1: Exportin-1 (XPO1, Homo sapiens, UniProt O14980)
UniProt O14980, sequence (whole entry, looked up): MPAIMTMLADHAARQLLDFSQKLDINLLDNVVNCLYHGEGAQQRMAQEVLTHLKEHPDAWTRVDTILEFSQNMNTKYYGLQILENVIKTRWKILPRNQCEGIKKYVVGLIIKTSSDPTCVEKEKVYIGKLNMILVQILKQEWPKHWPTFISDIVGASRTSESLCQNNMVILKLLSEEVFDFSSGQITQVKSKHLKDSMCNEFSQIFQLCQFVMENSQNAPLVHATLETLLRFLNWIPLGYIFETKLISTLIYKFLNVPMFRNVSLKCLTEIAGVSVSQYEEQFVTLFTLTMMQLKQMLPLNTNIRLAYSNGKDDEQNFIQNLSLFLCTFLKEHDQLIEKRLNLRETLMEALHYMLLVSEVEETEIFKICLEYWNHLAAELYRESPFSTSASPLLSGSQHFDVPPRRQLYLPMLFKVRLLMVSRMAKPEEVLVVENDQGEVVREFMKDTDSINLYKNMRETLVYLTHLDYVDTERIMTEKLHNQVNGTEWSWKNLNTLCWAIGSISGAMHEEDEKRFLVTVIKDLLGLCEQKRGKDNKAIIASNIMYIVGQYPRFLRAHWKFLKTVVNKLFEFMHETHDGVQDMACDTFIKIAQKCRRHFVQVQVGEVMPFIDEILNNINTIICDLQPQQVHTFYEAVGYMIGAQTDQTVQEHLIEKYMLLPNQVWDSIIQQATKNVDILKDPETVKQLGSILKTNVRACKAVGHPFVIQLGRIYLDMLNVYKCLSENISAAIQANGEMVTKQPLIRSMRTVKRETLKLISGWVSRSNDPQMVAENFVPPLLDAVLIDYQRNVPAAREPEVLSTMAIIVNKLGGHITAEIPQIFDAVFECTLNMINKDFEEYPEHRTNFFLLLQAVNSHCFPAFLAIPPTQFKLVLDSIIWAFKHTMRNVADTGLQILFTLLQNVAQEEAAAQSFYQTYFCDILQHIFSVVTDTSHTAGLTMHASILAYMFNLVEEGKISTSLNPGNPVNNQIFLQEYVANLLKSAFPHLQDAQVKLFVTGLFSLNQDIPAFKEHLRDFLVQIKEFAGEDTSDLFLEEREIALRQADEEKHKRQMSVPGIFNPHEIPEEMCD
UniProt O76090, sequence (whole entry, unmodified, looked up): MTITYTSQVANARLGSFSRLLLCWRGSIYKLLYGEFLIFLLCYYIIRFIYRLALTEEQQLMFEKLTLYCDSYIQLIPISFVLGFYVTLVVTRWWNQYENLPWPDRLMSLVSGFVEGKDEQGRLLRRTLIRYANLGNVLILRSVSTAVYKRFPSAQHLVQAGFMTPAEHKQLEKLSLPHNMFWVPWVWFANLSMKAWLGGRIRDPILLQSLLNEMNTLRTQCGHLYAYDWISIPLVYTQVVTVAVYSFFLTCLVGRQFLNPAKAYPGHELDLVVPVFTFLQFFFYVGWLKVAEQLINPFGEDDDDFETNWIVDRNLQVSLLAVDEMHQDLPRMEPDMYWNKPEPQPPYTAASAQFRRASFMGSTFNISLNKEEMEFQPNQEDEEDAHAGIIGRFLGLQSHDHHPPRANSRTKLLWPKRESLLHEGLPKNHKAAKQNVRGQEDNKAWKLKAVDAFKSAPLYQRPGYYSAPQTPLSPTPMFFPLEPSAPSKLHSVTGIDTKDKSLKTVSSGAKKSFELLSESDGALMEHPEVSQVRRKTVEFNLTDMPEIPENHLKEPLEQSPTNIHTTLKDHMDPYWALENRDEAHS
UniProt P51575, sequence (whole entry, unmodified, looked up): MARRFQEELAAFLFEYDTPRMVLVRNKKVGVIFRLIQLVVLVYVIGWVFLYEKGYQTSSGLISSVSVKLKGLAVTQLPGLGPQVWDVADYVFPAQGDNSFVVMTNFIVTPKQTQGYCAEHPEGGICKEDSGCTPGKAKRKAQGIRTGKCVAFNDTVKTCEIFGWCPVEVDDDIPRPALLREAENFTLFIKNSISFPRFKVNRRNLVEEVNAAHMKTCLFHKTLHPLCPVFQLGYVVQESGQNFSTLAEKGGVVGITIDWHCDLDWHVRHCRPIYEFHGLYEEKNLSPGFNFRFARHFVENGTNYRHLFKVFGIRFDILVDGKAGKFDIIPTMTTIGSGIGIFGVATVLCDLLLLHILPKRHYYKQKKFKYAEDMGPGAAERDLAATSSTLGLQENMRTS
UniProt P31941, sequence (whole entry, looked up): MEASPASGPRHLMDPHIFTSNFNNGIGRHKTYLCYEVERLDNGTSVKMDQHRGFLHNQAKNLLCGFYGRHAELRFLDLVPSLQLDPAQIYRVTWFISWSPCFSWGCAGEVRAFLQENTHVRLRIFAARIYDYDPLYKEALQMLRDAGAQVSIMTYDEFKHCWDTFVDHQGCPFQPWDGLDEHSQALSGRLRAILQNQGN

SMILES | target | test | system | conditions | scale | quantity | result
Nc1ccc(C(=O)O)cc1 | BEST1, with wild-type BEST1 (Homo sapiens, UniProt O76090, A10T) | whole-cell patch clamp | HEK293 co-expressing WT and A10T mutant | concentration not given, membrane potential -100 mV | – | current density | -55.3 pA/pF and -9.97 pA/pF and -14.9 pA/pF and -30.4 pA/pF and -42.1 pA/pF and -21.8 pA/pF
COCCC(=O)N1CCC(Oc2ccccc2)C1 (centres unmarked) | Coatomer subunit beta' WD repeat domain | binding, affinity selection mass spectrometry | – | – | reference: other proteins in batch | fold enrichment | 0.58
Nc1ncnc2c1ncn2[C@@H]1O[C@H](COP(=O)(O)CP(=O)(O)OP(=O)(O)O)[C@@H](O)[C@H]1O | P2X purinoceptor 1 (P2RX1, Homo sapiens, UniProt P51575, K136W) | calcium influx | – | 10 µM | reference: ionomycin response | calcium influx | 100% and 98.4% and 95.1%
Nc1ncnc2c1ncn2[C@@H]1O[C@H](CO[P@](=O)(O)O[P@](=O)(O)O[P@@](=O)(O)S)[C@@H](O)[C@H]1O | GUK1 | ITC | – | molar ratio 1.319 | – | ΔH | -0.803 kcal/mol
C=CC(=O)N1CCC(COCC(=O)N2CCN(c3nc(-c4cnc(N)nc4C(F)F)nc(N4CCOC[C@@H]4C)n3)CC2)CC1 | EGFR (Homo sapiens, UniProt P00533, del752-759) | KINOMEscan | – | 1 µM | reference: DMSO control | remaining binding | 100%
Cn1nnc2c(C(N)=O)ncn2c1=O | Nuclear receptor subfamily 2 group C member 2 ligand-binding domain | SPR imaging | – | 600 nM | – | koff | 5.21e-05 s⁻¹
CC[C@@H]1[C@H](F)C(=O)N[C@@H]1COc1nccc2cc(C(N)=O)c(OC)cc12 | MARK2 (Homo sapiens, UniProt Q7KZI7) | ATP-site probe binding, ActivX profiling | THP-1 cell lysate | 0.04 mM, Lys2 site | – | inhibition | 0.7%
CC(C)C(=O)Nc1n[nH]c2cc(-c3cccc(NS(=O)(=O)C4CC4)c3)ccc12 | PIP5K1C (Homo sapiens, UniProt O60331) | ADP-Glo | – | 1.52 nM, together with: 10 µM ATP | – | ADP produced | 2.88 µM
Clc1cncc(OC[C@H]2CN(CCN3CCc4ccccc43)CCO2)c1 | HTR4 (Homo sapiens, UniProt Q13639) | radioligand binding | – | concentration not given | – | inhibition | 26%
C=CC(=O)N1CCC[C@@H](n2nc(-c3ccc(Oc4ccccc4)cc3)c3c(N)ncnc32)C1 | MAPK3 | – | – | 0.1 µM | – | remaining activity | 260%
CCCCCCCCCCCCCCCC(=O)SCCNC(=O)CCNC(=O)C(O)C(C)(C)COP(=O)(O)OP(=O)(O)OCC1OC(n2cnc3c(N)ncnc32)C(O)C1OP(=O)(O)O (centres unmarked) | Mitochondrial dynamics protein MID49 (Mief2, Mus musculus, UniProt Q5NCS9) | reversed-phase HPLC | – | mouse protein, 5.3 µM in oligomer fraction | – | concentration in oligomer fraction | 5.5 µM
O=C(Nc1cccnn1)N1CCC(=Cc2cccc(Oc3ccc(C(F)(F)F)cn3)c2)CC1 | Faah (Mus musculus, UniProt O08914) | enzyme activity, inhibitor, ex vivo | rat, liver | oral, 8 h | – | ED50 | 2 mg/kg
Nc1ncnc2c1ncn2[C@@H]1O[C@H](COP(=O)(O)OP(=O)(O)OP(=O)(O)O)[C@@H](O)[C@H]1O | Hexokinase-3 (HK3, Homo sapiens, UniProt P52790, R480W) | substrate | – | mutant R480W, together with: glucose 0.5 mM | – | kcat | 47 ± 7 s⁻¹
Nc1ncnc2c1ncn2C(C=O)OC(C=O)CO (centres unmarked) | SMN, human | inhibitor, co-immunoprecipitation, western blot, item: SMN-GFP-RMET interaction | HEK293T expressing GFP-RMET | 25 µM, 3 days | – | binding | decreased
Cl.Cl.OCCOCCN1CCN(C(c2ccccc2)c2ccc(Cl)cc2)CC1 (centres unmarked) | Nuclear receptor subfamily 2 group C member 2 ligand-binding domain | SPR imaging | – | 600 nM | – | koff | 8.85e-07 s⁻¹
O=c1nc(SCc2cc(F)cc(C(F)(F)F)c2)nc(SCc2ccc3sccc3c2)[nH]1 | TOP2A (Homo sapiens, UniProt P11388) | decatenation | – | 15.6 µM | – | mean decatenated DNA | 0.37%
O=C1OC(c2ccccc2)=N/C1=C\c1cccc(O)c1 | Pancreatic alpha-amylase | inhibitor, Lineweaver-Burk | – | 100 ppm, together with: starch substrate | – | Vmax | 0.045 mg/mL/min
CN(C)CCC=C1c2ccccc2CCc2ccccc21 | Nuclear receptor subfamily 2 group C member 2 ligand-binding domain | SPR imaging | – | 600 nM | – | koff | 1.24e-07 s⁻¹
c1cncc(OC[C@H]2CN(CCN3CCc4ccccc43)CCO2)c1 | DRD5 (Homo sapiens, UniProt P21918) | radioligand binding | – | concentration not given, together with: [3H]SCH23390 | – | inhibition | 12.7%
CC[C@H](C)[C@@H]1NC(=O)[C@H](CCCNC(=N)N)NC(=O)[C@@H]2CCCN2C(=O)[C@H](Cc2ccccc2)NC(=O)[C@H]([C@@H](C)O)NC(=O)CNC(=O)[C@H](CC(C)C)NC(=O)[C@@H]2CCCN2C(=O)[C@H]([C@@H](C)O)NC(=O)[C@H](Cc2c[nH]c3ccccc23)NC(=O)[C@H](Cc2ccc(O)cc2)NC(=O)[C@H]([C@@H](C)CC)NC(=O)[C@H]([C@@H](C)O)NC(=O)[C@H]([C@@H](C)O)NC(=O)[C@@H](Cc2ccc(O)cc2)NC(=O)CSC[C@@H](C(N)=O)NC(=O)[C@H](CCCNC(=N)N)NC1=O | VPS35/VPS29 (Homo sapiens, UniProt Q96QK1+Q9UBQ0) | binding, isothermal titration calorimetry | – | 25 °C | – | ΔH | -11.2 ± 1 kcal/mol
CC1CCCN(C(=O)c2cc3ncccn3n2)C1 (centres unmarked) | E3 SUMO-protein ligase PIAS1 (PIAS1, Homo sapiens, UniProt O75925) | binding, affinity selection mass spectrometry | – | – | reference: other proteins in batch | log fold enrichment | 0.0363
CC[S+]([O-])c1nc(-c2ccccc2)cc(C(F)(F)F)n1 (centres unmarked) | XPO1 | nuclear export, high content imaging | HeLa Kyoto reporter | 0.05 µM, 2 h | – | cells with nuclear reporter | 2.88% and 4.7% and 1.37%

SMILES | target | test | system | conditions | scale | quantity | result
CNCCCC[C@H](NC(=O)[C@@H](NC(=O)[C@H](CCCNC(=N)N)NC(=O)[C@H](C)N)[C@@H](C)O)C(=O)N[C@@H](CCC(N)=O)C(=O)N[C@H](C(=O)N[C@@H](C)C(=O)N[C@@H](CCCNC(=N)N)C(=O)N[C@@H](CCCCN)C(=O)N[C@@H](CO)C(=O)N[C@H](C(=O)NCC(=O)NCC(=O)N[C@@H](CCCCN)C(=O)N[C@@H](C)C(=O)N[C@@H](Cc1ccc(O)cc1)C(=O)O)[C@@H](C)O)[C@@H](C)O | Transcriptional regulator ATRX (ATRX, Homo sapiens, UniProt P46100, F284Y/K251R) | isothermal titration calorimetry | – | concentration not given, pH 7.5, 25.0 °C | – | binding enthalpy | -5.89 kcal/mol
CCCC[C@H]1CN(c2ccccc2)C(=O)CN1Cc1cncn1Cc1ccc(Br)cc1 | Cryptococcus neoformans farnesyltransferase | enzyme activity, inhibitor, fluorescence | – | together with: 1 µM FPP, 0.5 µM dansylated peptide | – | IC50 | 920 ± 510 nM
C#Cc1cccc(Oc2ccc(-c3nn([C@@H]4CCCN(C(=O)C=C)C4)c4ncnc(N)c34)cc2)c1 | Peroxiredoxin-like 2A (Homo sapiens, UniProt Q9BRX8) | ABPP-SILAC | – | 1 µM, 1 h | reference: DMSO | SILAC ratio | 20
C[C@@H](c1ccc(-n2cnc3c(N)ncnc32)cc1)N1CCc2nn(C)c(Cc3ccccc3)c2C1=O | EGFR (Homo sapiens, UniProt P00533, G719C) | KINOMEscan | – | 0.1 µM | reference: DMSO control | remaining binding | 88%
NCCCC(=O)O | SLC6A6 (Homo sapiens, UniProt P31641, Y138A) | binding, microscale thermophoresis | – | 125 µM, room temperature, together with: 50 nM labelled protein | higher = more binding | normalised MST signal | 0.0105
c1coc(-c2n[nH]cc2-c2ccnc3ccccc23)c1 | Serine/threonine-protein kinase CBK1 (CBK1, Candida albicans, UniProt Q5AP53) | kinase binding, MIB/MS competition | Candida albicans lysate | 1 µM | reference: DMSO, negative = stronger binding | log2 fold change | -0.14
Oc1ccc(/C=C/c2cc(O)cc(O)c2)cc1 | O-methyltransferase (Sorghum bicolor, UniProt A0A1B6PFV1) | ITC | – | concentration not given, together with: ADE+ | – | binding stoichiometry | 0.62 ± 0.005
CCC1(O)CCCN(C(=O)c2ccc(-c3ccc(F)c(NC(=O)CCl)c3)cc2)C1 (centres unmarked) | DNA dC->dU-editing enzyme APOBEC-3A (Homo sapiens, UniProt P31941) | covalent modifier, intact protein mass spectrometry, item: adduct +26309 Da | – | 250 µM, 1 h, 10-fold molar excess | – | protein adduct | 100%
Cc1cccc(N2CC(C(=O)O)CC2=O)c1 (centres unmarked) | Coatomer subunit beta' WD repeat domain | binding, affinity selection mass spectrometry | – | – | reference: other proteins in batch | fold enrichment | 1.06
CCS(=O)(=O)c1nc(C2CC2)cc(C(F)(F)F)n1 | XPO1 | nuclear export, high content imaging | HeLa Kyoto reporter | 5 µM, 2 h | – | cells with nuclear reporter | 3.67% and 3.84% and 4.94%
O=C1NC(=O)/C(=C/c2ccc(-c3ccc(F)cc3O)o2)S1 | PHKG1 (Homo sapiens, UniProt Q16816) | enzyme activity | – | 10 µM | – | remaining activity | 61%
O=C(COP(=O)(O)O)[C@@H](O)[C@H](O)[C@H](O)COP(=O)(O)O | Myb-binding protein 1A (Homo sapiens, UniProt Q9BQG0) | thermal proteome profiling, item: MYBBP1A | HepG2 cell lysate | concentration not given, 57 over 37 °C, mean | reference: compound over control | thermal stability ratio | 0.624
CNC(=O)c1cc(Oc2ccc(NC(=O)Nc3ccc(Cl)c(C(F)(F)F)c3)c(F)c2)ccn1 | Nuclear receptor subfamily 2 group C member 2 ligand-binding domain | SPR imaging | – | 600 nM | – | koff | 3.74e-05 s⁻¹
Nc1nc2c(ncn2[C@@H]2O[C@H](COP(=O)(O)O)[C@@H](O)[C@H]2O)c(=O)[nH]1 | GUK1 | enzyme activity, NADH-coupled | – | 1000 µM | – | reaction rate | 30.8 s⁻¹ and 30 s⁻¹ and 40.6 s⁻¹
CC(C)C[C@@H]1NC(=O)[C@H](C(C)C)NC(=O)CNC(=O)[C@H](CC(N)=O)NC(=O)[C@@H]2CCCN2C(=O)[C@H](Cc2ccc(O)cc2)NC(=O)[C@H](CCCNC(=N)N)NC(=O)[C@H](Cc2ccccc2)NC(=O)[C@@H](NC(=O)[C@H](CCCCN)NC(=O)[C@H](C)NC(=O)[C@H](CO)NC(=O)[C@H](C)NC(=O)[C@@H](N)Cc2ccc(O)cc2)CSSC[C@@H](C(=O)N[C@H](C(N)=O)[C@@H](C)O)NC(=O)[C@H](C)NC1=O | Alpha-2-HS-glycoprotein, asialo (AHSG, Bos taurus, UniProt P12763) | ITC | – | concentration not given, together with: asialofetuin | – | binding enthalpy | -2.38 kcal/mol
COC1=NS(=O)(=O)c2ccccc21 | PKLR (Homo sapiens, UniProt P30613) | enzyme activity, activator | – | 10 µM | – | activity | inactive
CCN(CCO)CCCC(C)Nc1ccnc2cc(Cl)ccc12 (centres unmarked) | SCN5A (Homo sapiens, UniProt Q14524) | sodium current | – | 10 µM | – | activation V1/2 | -49.8 ± 3.8 mV
O=C1OC(c2ccccc2)=N/C1=C\c1ccccc1O | MAL12 (Saccharomyces cerevisiae S288c, UniProt P53341) | inhibitor, Lineweaver-Burk | – | 3200 ppm, together with: pNPG substrate | – | Vmax | 0.017 mM/min
Nc1[nH]nc2nnc(-c3c(-c4ccccc4)nn4ccccc34)cc12 | MAPK3 | ADP-Glo | – | 251 nM, together with: MBP substrate | – | kinase activity | 70.2% and 43.1% and 95.3%
Oc1ccc([C@@H]2c3c(O)cc(O)cc3[C@@H]3c4c(cc(O)c5c4[C@@H]2[C@H](c2ccc(O)cc2)[C@H]5c2cc(O)cc4c2[C@@H](c2cc(O)cc(O)c2)[C@H](c2ccc(O)cc2)O4)O[C@H]3c2ccc(O)cc2)cc1 | Pancreatic alpha-amylase | enzyme activity, inhibitor | pancreatic | concentration not given | – | Vmax | 1300 ± 64 µmol/min
C[C@]12CCC(=O)C=C1CC[C@@H]1[C@@H]2[C@@H](O)C[C@@]2(C)[C@H]1CC[C@]2(O)C(=O)CO | Nuclear receptor subfamily 2 group C member 2 ligand-binding domain | SPR imaging | – | 600 nM | – | koff | 6.58e-05 s⁻¹
C[S+](CC[C@H](N)C(=O)[O-])C[C@H]1O[C@@H](n2cnc3c(N)ncnc32)[C@H](O)[C@@H]1O (some centres unmarked) | KMT2C (Homo sapiens, UniProt Q8NEZ4) | substrate, enzyme-coupled methylation | – | together with: H3 peptide 25 µM | – | apparent Km | 4.3 ± 0.6 µM

Repeated from above:
SMILES | target | test | system | conditions | scale | quantity | result
Cc1cccc(N2CC(C(=O)O)CC2=O)c1 (centres unmarked) | Coatomer subunit beta' WD repeat domain | binding, affinity selection mass spectrometry | – | – | reference: other proteins in batch | fold enrichment | 1.06
Nc1nc2c(ncn2[C@@H]2O[C@H](COP(=O)(O)O)[C@@H](O)[C@H]2O)c(=O)[nH]1 | GUK1 | enzyme activity, NADH-coupled | – | 1000 µM | – | reaction rate | 30.8 s⁻¹ and 30 s⁻¹ and 40.6 s⁻¹
CNC(=O)c1cc(Oc2ccc(NC(=O)Nc3ccc(Cl)c(C(F)(F)F)c3)c(F)c2)ccn1 | Nuclear receptor subfamily 2 group C member 2 ligand-binding domain | SPR imaging | – | 600 nM | – | koff | 3.74e-05 s⁻¹
